Measurements gathered from unrelated publications.
Each numbered part is a random draw from the data of one study; scales do not carry over between parts.

Block 1 — method: protein-binding microarray; form: double-stranded DNA, one strand shown; medium: in vitro; tested at: 250 nM; notes: 60-bp whole probe; added: salmon DNA 0.4 mg/ml; baseline: random background probes; direction: higher = stronger binding; constant ends, left off below: GCCTAGCAC … GTCTTGATTCGCTTGACGCTGCTG
Target: Interferon regulatory factor 7, full length, phosphomimetic (IRF7, Homo sapiens, UniProt Q92985, residues 1-503, S101K/S471D/S472D/S475D/S476D/S477D/S483D/S484D/S487D)
UniProt Q92985, sequence (whole entry, unmodified, looked up): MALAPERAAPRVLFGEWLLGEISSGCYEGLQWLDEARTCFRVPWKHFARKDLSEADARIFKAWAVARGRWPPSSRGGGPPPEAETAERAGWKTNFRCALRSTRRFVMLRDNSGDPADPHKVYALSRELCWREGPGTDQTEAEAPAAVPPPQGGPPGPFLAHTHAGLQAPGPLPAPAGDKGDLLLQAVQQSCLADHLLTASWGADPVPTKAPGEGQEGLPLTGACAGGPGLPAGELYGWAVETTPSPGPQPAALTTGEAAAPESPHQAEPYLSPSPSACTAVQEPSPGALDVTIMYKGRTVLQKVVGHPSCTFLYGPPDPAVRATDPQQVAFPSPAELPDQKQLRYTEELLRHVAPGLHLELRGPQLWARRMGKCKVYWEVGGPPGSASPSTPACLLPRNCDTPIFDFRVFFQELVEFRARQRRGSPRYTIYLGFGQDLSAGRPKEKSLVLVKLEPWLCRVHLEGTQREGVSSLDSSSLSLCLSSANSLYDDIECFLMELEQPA
| Strand | log fluorescence [z-score] |
| --- | --- |
| TGGAGAGTAGCTTTCTGAGGGTGCTAG | -1.09 |
| GACGGTTCCCTTTTTCTGACGTGCTAG | 2.3 |
| TTTTTTATCAATCATTTTCGTGTGCTA | 1.05 |
| TTATATTTCGGGTATCGATTAGTGCTA | 1.98 |
| AGCAAATTATATCTTATATCGTGCTAG | -0.275 |
| GACGGTATTGGGTATCGGGACGTGCTA | 0.0162 |
| GACGGAATGGGTATCGGGACGTGCTAG | -0.229 |

Block 2 — method: RNA Bind-n-Seq; form: RNA; medium: in vitro; tested at: 365 nM; baseline: no-protein control; direction: higher = stronger binding
Target: RNA binding protein fox-1 homolog 2, RRM domain, GST-SBP tag (RBFOX2, Homo sapiens, UniProt O43251-10, residues 100-194)
Notes: natural RNA segment, single round, ends assumed
Constant ends, left off below: GGGAGUUCUACAGUCCGACGAUC … UGGAAUUCUCGGGUGCCAA
Construct (chain): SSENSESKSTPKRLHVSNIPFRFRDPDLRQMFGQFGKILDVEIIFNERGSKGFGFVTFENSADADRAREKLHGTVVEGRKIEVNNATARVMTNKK
| Strand | RBNS enrichment (R) |
| --- | --- |
| UAAUACACGGUGAUUUUAAAACAACCAUAAAAUUGAUUCAGAGUCCACUGACCCUUACAGAUGUAGGUAUACCCUUACUGGAGAGGGAACUCUGAUGAGGAGAUGCUGGU | 0.471 |
| AGCUCUAAAGAUUUCAAAUAGUGGCAGACAGUGUCUUCUGAAUGUAAGUUUUGAGAAAUACGAGUCUGUCAGAGCGGCCAUAAGCCAUAAAGAGUCAAUCUCUUAAUUAU | 0.336 |
| UGGCUCAUGCCUCAGCCCGCCUUCAGGCUGCCCGCCGCCCCUCCACCCAUCCAGUGGACUCUGGGGCGCGGCCACAGGGGACGGGAUGAGGAGCGGGAGGGUUCCGCCAC | 0.217 |
| AGGGCAAAGAGCAGGCACCACUCAGAACGUGGUGAGUACAGCUCAGCUCAGCACUCAGUCAGUGGUAACUUGUGCCCAGCCCUGUGCUAGGCGCUGACAUUAACAGGAGC | 0.284 |
| GAUGCCCCAAGUUGUUUCCGGUUCUUUCUAGCUGUCCUUUUUAAAGUGUGUGCUCUUCCUUCCUUAAAACCUUUAGAUGUCCUGUUACACUAACACAGGUCUUCCCUUCC | 0.551 |
| UUUCCUGAUUACUAGAAGCUGACCUCUGCUAUCCUGGGUAAGAACGCCCUGAGUACGGGUACCAUGCUCUGUUUACUUUAGGAUCUCCAGCACCAAGCAAGUGCCUGGCA | 0.765 |

Block 3 — method: RNAcompete; form: RNA; medium: in vitro; tested at: 20 nM; notes: 7-mer, probes averaged, single round; baseline: mean of 7-mers; direction: higher = stronger binding
Target: PABPC1L2, full length, GST fusion (mouse, UniProt A0ABA7IW68)
Residues (chain): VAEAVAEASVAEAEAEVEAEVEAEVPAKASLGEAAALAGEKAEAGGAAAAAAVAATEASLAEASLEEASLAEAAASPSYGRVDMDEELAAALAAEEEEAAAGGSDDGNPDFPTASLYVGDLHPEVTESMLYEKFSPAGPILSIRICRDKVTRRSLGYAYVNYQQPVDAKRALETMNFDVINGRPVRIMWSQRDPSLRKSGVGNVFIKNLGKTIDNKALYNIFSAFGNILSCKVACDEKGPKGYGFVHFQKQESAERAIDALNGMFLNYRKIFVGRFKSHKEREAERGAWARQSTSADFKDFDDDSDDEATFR
| Strand | 7-mer Z-score |
| --- | --- |
| GCCAGAG | 0.102 |
| UCUGGCG | -0.079 |
| UCCUACG | -0.213 |
| GGUAGAU | 0.0352 |
| ACAGAAC | 0.158 |
| GACGGAC | 0.0642 |
| AUGCGUU | -0.329 |

Further values, each from its own experiment
| Substance | target | test | test system | setting | scale | endpoint | result |
| --- | --- | --- | --- | --- | --- | --- | --- |
| PhoQ, residues 284 288 289 292 302 303 ASHLAV | PhoP, residues 12 14 15 18 19 HEGLL (Escherichia coli, UniProt P23836) | Sort-seq, refers to: YFP reporter | E. coli | PhoQ-PhoP variant library, added: 10 µM Mg2+ | baseline: high Mg2+ state, higher = stronger signaling | fold induction | 3.01 |

A few entries again (block 1):
| Strand | log fluorescence [z-score] |
| --- | --- |
| AGCAAATTATATCTTATATCGTGCTAG | -0.275 |
| GACGGTATTGGGTATCGGGACGTGCTA | 0.0162 |
| GACGGAATGGGTATCGGGACGTGCTAG | -0.229 |
